{"data": "Assay results of several laboratories", "note": "Every numbered part comes from another study and shows a few of its results, in no order."}
{"data": "Block 1", "target": "Histone acetyltransferase KAT6A, winged helix 2, GST fusion (KAT6A, Homo sapiens, UniProt Q92794, residues 85-181)", "method": "protein binding microarray", "molecule type": "double-stranded DNA, one strand shown", "matrix": "in vitro", "concentration": "not given", "notes": "8-mer, flanks averaged, mean of 2 arrays, mostly near background", "relative to": "not given", "direction": "higher = stronger binding", "Target sequence (chain)": "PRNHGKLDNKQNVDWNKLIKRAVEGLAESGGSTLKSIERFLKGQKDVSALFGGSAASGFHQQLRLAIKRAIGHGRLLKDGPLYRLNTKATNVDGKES"}
{"Oligonucleotide": "GCCCCAAC", "E-score": 0.0722}
{"Oligonucleotide": "CCTAGCAG", "E-score": -0.0475}
{"Oligonucleotide": "ACATGCGC", "E-score": -0.104}
{"Oligonucleotide": "ACAGTCAT", "E-score": -0.24}
{"Oligonucleotide": "CAGCAGGC", "E-score": 0.218}
{"Oligonucleotide": "AACCGTGC", "E-score": 0.13}
{"Oligonucleotide": "GTTACAAC", "E-score": 0.05}
{"Oligonucleotide": "AAAGGTAC", "E-score": 0.0092}
{"data": "Block 2", "target": "PABPC1L2, full length, GST fusion (mouse, UniProt A0ABA7IW68)", "method": "RNAcompete", "molecule type": "RNA", "matrix": "in vitro", "concentration": "20 nM", "notes": "7-mer, probes averaged, single round", "relative to": "mean of 7-mers", "direction": "higher = stronger binding", "Construct (chain)": "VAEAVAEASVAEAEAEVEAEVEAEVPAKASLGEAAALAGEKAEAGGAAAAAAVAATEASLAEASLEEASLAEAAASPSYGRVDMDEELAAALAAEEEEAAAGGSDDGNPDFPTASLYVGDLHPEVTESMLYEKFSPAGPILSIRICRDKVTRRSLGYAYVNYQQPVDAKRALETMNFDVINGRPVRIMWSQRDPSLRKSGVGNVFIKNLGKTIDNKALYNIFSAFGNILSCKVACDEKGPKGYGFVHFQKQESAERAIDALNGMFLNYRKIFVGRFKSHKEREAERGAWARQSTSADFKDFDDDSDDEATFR"}
{"Oligonucleotide": "CUCACAU", "7-mer Z-score": -0.213}
{"Oligonucleotide": "UUCCGGU", "7-mer Z-score": -0.293}
{"Oligonucleotide": "AUUUGAG", "7-mer Z-score": -0.0718}
{"Oligonucleotide": "GUGGUGU", "7-mer Z-score": -0.0826}
{"Oligonucleotide": "AGGCCAG", "7-mer Z-score": 0.075}
{"data": "Block 3", "target": "RNA binding protein fox-1 homolog 2, RRM domain, GST-SBP tag (RBFOX2, Homo sapiens, UniProt O43251-10, residues 100-194)", "method": "RNA Bind-n-Seq", "molecule type": "RNA", "matrix": "in vitro", "concentration": "365 nM", "notes": "natural RNA segment, single round, ends assumed", "relative to": "no-protein control", "direction": "higher = stronger binding", "shared flanks, not repeated": "GGGAGUUCUACAGUCCGACGAUC … UGGAAUUCUCGGGUGCCAA", "Residues (chain)": "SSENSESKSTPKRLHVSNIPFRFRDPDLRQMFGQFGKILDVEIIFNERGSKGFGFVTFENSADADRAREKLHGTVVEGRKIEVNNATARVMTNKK"}
{"Oligonucleotide": "AAAGUUCCAGAGCCUCCCUCGAAGGUUCUCUACUACUGUAUUCUGUACAUAAUGUACCAUCCCAUGUGGAAUCUGUGAGUGUCCUCUUAAGUAGCGUGGGCUAGCCAAUC", "RBNS enrichment (R)": 0.338}
{"Oligonucleotide": "ACGGUGAGCUUUAAUGUCUAUGCUGACAGUUAGGUUUUGCUCUCUUUUGUAACAGGUUACGUAGACCAGCAGUGUUUAAAUCUAAAUACGUUGUGAGUCUGUUAUCUGUC", "RBNS enrichment (R)": 0.379}
{"Oligonucleotide": "CUAAGUUGUCUAGUAAAUAAGUCUCCCUGAAUCUUAAAUAAUUUUGGAGAAUUAGAAUUCUCCAUCCUAUUAAACAGAAAGUAAAGCCAAAUAGCCUGGAGUUGUUUGUC", "RBNS enrichment (R)": 0.54}
{"Oligonucleotide": "GCUGUUUUUGAACACGGGGUCAUUCUGCAGUCAGGACGAACCGGUCCCCGUCGCAGACGGAGUGCACGUGCCCUGCGCCACAUCCUCACGCUCGGUGGAGGGACGCGUGC", "RBNS enrichment (R)": 0.279}
{"Oligonucleotide": "UAUAAAUUUUAUGAAACCCAAGCAUAGUGCUUAUUUUUUAAUAAAACAACUGACUUAACACAUUGUGAUGAUGGGUUGGAAGUGGAGAGAUUUUUAUGUCUGUCCCCCCU", "RBNS enrichment (R)": 0.267}
{"Oligonucleotide": "AUAAGUGUUGGAGUAACACUUGCAUAAAAGAAUUUAAGGAGUGAUAGCUCUUUCUGUUCUGCCAUUCCCAACAUUCCUGGGGGAAAGGAGACUCAAUGAGUUAAUACUAU", "RBNS enrichment (R)": 0.404}
{"data": "Mixed results"}
{"Substance": "PhoQ, residues 284 288 289 292 302 303 SSTLLI", "target": "PhoP, residues 12 14 15 18 19 NYFTV (Escherichia coli, UniProt P23836)", "assay": "Sort-seq, measured: YFP reporter", "system": "E. coli", "conditions": "PhoQ-PhoP variant library, together with: 10 µM Mg2+", "how to read": "relative to: high Mg2+ state, higher = stronger signaling", "measurement": "fold induction", "value": 10.9}
{"note": "For quick reference, copied from above (block 1):"}
{"Oligonucleotide": "ACATGCGC", "E-score": -0.104}
{"Oligonucleotide": "ACAGTCAT", "E-score": -0.24}
{"Oligonucleotide": "AAAGGTAC", "E-score": 0.0092}
